Literature values, collected from citations in different studies.
Numbered parts are unrelated; values within a part may stem from several laboratories. ± marks the error that the study gave.

Amino acid sequences for entries named in this document (tags omitted). Residues count along the entry.
UniProt P09884, whole entry: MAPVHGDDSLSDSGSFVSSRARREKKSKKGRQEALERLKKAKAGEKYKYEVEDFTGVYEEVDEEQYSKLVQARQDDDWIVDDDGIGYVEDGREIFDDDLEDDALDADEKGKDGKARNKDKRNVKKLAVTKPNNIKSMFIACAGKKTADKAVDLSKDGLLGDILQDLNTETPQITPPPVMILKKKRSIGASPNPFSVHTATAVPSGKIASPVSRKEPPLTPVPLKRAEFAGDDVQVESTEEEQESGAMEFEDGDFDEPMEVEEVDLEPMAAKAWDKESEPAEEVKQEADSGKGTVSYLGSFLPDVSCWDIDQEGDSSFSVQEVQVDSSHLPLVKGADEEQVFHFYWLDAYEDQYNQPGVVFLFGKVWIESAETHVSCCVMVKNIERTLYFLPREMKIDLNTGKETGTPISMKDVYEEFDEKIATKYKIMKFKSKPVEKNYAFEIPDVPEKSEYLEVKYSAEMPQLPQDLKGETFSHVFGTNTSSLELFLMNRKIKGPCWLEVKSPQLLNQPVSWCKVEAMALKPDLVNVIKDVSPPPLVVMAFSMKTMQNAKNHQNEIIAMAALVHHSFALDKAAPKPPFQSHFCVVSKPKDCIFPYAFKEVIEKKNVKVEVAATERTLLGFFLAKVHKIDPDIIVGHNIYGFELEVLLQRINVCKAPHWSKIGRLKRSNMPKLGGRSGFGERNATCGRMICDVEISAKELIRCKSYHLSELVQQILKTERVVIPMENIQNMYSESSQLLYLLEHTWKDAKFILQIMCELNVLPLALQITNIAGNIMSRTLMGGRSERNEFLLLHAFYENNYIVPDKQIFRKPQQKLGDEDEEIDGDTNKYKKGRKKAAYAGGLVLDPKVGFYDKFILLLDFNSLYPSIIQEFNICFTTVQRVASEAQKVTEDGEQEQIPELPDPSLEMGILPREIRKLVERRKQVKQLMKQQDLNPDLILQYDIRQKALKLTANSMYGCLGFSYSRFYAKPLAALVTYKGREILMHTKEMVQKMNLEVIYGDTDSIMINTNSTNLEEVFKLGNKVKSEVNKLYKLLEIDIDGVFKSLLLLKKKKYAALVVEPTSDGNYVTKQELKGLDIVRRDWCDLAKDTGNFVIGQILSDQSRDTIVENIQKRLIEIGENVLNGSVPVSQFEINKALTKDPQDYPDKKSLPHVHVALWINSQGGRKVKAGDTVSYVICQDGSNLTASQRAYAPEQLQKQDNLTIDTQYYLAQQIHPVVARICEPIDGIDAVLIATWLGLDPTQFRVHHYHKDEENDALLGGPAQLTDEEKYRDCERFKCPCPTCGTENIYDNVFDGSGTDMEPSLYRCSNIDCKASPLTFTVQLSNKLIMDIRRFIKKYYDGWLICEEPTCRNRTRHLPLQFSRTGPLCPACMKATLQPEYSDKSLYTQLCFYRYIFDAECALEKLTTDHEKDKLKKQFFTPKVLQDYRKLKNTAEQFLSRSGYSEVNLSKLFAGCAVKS
UniProt P14416, whole entry: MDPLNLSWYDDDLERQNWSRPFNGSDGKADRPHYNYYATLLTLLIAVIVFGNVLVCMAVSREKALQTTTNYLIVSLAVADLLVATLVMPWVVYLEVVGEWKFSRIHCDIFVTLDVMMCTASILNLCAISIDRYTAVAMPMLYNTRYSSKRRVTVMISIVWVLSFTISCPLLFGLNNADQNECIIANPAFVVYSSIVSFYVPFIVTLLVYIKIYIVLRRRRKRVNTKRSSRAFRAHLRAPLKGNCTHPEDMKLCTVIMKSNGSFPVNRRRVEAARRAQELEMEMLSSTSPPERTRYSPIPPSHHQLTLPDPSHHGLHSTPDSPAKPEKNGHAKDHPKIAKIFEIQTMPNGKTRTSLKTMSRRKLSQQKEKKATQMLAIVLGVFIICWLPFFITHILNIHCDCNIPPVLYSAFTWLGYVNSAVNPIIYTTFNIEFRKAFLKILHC
UniProt P08253, 110-660 limits assumed: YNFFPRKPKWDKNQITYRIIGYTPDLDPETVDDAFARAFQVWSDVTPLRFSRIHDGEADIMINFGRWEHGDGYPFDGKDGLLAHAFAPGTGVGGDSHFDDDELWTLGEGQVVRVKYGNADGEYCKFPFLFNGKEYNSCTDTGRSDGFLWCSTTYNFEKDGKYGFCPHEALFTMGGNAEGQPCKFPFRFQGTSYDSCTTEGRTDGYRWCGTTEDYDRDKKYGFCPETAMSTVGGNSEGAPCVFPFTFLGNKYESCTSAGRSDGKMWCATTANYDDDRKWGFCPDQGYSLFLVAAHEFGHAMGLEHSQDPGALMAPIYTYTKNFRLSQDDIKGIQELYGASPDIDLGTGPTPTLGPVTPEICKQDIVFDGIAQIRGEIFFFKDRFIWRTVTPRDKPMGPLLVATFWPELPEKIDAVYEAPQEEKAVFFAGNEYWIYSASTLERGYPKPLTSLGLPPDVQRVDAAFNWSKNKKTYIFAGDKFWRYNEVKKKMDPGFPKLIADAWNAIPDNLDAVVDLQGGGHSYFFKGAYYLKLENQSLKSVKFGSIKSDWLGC
UniProt P17787, 26-502 limits assumed: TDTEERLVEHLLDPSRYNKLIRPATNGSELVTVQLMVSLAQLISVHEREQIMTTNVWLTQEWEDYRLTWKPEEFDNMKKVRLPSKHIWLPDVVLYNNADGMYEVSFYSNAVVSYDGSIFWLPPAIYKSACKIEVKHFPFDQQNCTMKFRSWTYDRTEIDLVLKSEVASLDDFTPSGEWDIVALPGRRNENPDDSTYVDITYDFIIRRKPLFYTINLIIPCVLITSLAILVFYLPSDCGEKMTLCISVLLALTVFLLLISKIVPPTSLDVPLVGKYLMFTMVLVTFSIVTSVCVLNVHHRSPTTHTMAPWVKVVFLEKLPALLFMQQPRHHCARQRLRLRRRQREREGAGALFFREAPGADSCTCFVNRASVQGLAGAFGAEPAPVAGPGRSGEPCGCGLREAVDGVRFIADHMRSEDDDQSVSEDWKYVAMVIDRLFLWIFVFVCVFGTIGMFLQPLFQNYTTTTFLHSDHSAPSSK
UniProt P43681, 29-627 limits assumed: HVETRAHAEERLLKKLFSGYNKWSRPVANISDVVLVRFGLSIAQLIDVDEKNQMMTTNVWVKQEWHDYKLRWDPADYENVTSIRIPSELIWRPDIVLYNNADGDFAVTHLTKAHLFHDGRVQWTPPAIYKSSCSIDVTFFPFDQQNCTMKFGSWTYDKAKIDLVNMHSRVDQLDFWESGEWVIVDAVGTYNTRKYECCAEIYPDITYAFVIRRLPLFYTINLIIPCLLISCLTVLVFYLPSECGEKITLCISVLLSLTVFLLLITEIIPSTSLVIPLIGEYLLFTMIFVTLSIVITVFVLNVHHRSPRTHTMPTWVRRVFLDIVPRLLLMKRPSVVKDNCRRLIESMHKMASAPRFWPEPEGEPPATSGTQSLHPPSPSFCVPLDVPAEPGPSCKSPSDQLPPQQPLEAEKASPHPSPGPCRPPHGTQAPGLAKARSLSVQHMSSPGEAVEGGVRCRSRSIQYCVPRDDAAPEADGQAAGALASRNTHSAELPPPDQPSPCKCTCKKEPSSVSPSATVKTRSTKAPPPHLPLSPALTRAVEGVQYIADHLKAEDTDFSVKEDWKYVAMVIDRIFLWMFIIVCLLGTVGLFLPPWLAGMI

Set 1
Target: HLA class I histocompatibility antigen, A alpha chain, allele A*26:03 (Homo sapiens, UniProt P04439)
Structure (SMILES) | IC50
CC[C@H](C)[C@H](NC(=O)[C@H](Cc1cnc[nH]1)NC(=O)[C@@H]1CCCN1C(=O)[C@H](CCCCN)NC(=O)[C@H](CC(C)C)NC(=O)[C@H](Cc1ccc(O)cc1)NC(=O)[C@@H](N)CO)C(=O)N[C@@H](Cc1ccccc1)C(=O)N[C@@H](CCC(=O)O)C(=O)O | > 20 µM
NCC(=O)N[C@@H](Cc1c[nH]c2ccccc12)C(=O)N1CCC[C@H]1C(=O)N[C@@H](CC(=O)O)C(=O)N[C@@H](CC(N)=O)C(=O)N[C@@H](Cc1ccc(O)cc1)C(=O)N[C@@H](CS)C(=O)N[C@@H](CCC(=O)O)C(=O)N[C@@H](Cc1c[nH]c2ccccc12)C(=O)O | > 20 µM
CC[C@H](C)[C@H](NC(=O)[C@H](CCC(=O)O)NC(=O)[C@H](CCC(N)=O)NC(=O)[C@H](Cc1cnc[nH]1)NC(=O)[C@@H](NC(=O)[C@H](CS)NC(=O)[C@H](Cc1ccc(O)cc1)NC(=O)[C@H](CC(C)C)NC(=O)[C@@H](N)[C@@H](C)O)C(C)C)C(=O)O | > 20 µM
CC[C@H](C)[C@H](NC(=O)CNC(=O)[C@H](CCSC)NC(=O)[C@H](CCC(=O)O)NC(=O)[C@@H](N)CCCNC(=N)N)C(=O)N[C@H](C(=O)N[C@@H](CC(=O)O)C(=O)N[C@@H](CC(C)C)C(=O)N[C@@H](CC(C)C)C(=O)O)C(C)C | > 20 µM
CC[C@H](C)[C@H](NC(=O)[C@H](CCC(=O)O)NC(=O)CN)C(=O)N[C@@H](Cc1ccccc1)C(=O)NCC(=O)N[C@@H](CC(C)C)C(=O)N[C@@H](CC(C)C)C(=O)NCC(=O)N1CCC[C@H]1C(=O)O | > 20 µM
CC[C@H](C)[C@H](NC(=O)CNC(=O)[C@@H](NC(=O)[C@H](CCC(=O)O)NC(=O)CN)[C@@H](C)CC)C(=O)N[C@@H](CCCNC(=N)N)C(=O)N[C@@H](CC(N)=O)C(=O)N[C@@H](Cc1c[nH]c2ccccc12)C(=O)N[C@@H](CC(C)C)C(=O)O | > 20 µM
CC(C)C[C@H](N)C(=O)N[C@H](C(=O)NCC(=O)NCC(=O)N[C@@H](CCCNC(=N)N)C(=O)N[C@@H](CCC(=O)O)C(=O)N[C@@H](Cc1c[nH]c2ccccc12)C(=O)N[C@@H](CO)C(=O)N[C@@H](Cc1ccc(O)cc1)C(=O)O)C(C)C | > 20 µM

Single results of other studies
SMILES | tested on | test | system | setting | endpoint | result
Cc1cc(Nc2ccc(S(F)(F)(F)(F)F)cc2)n2nc(C(C)(F)F)nc2n1 | Plasmodium falciparum | – | mouse | dose not given, twice daily dosing | AUC at ED90 | 26 µM.h/day
Cc1cn([C@@H]2CC[C@H](OC(C(=O)O)P(=O)(O)O)C2)c(=O)[nH]c1=O (relative stereo) | POLA1 (Homo sapiens, UniProt P09884) | enzyme activity, inhibitor | – | – | IC50 | 229 µM
Clc1ccc(N2CCN(Cc3cnn4ccccc34)CC2)cc1 | DRD2 (Homo sapiens, UniProt P14416) | binding | – | – | Ki | 3.2 ± 0.058 µM
CC(C)C[C@H](NC(=O)[C@@H]1CCCN1)C(=O)NCC(=O)N[C@H](C(=O)N[C@@H](CCCNC(=N)N)C(=O)O)C(C)C | MMP2 (Homo sapiens, UniProt P08253) | substrate | – | – | kcat | 4.1 s⁻¹
COCCC1CC1c1cncc(OC[C@@H]2CCN2)c1 (some centres unmarked) | Neuronal acetylcholine receptor; alpha4/beta2 (Homo sapiens, UniProt P17787+P43681) | receptor inactivation | SH-EP1 expressing human α4β2 | – | efficacy | 71%
O=C(Nc1cccc(C2=NCCN2)c1)c1ccc(-c2ccc(C(=O)Nc3cccc(C4=NCCN4)c3)cc2)cc1 | UPPS, Staphylococcus aureus | enzyme activity | – | – | IC50 | ~0.1 µM
CCCN(CCC)c1c([N+](=O)[O-])cc(S(=O)(=O)Nc2ccccc2)cc1[N+](=O)[O-] | Leishmania donovani | cell growth | axenic amastigotes | – | IC50 | 2.3 ± 0.5 µM

A few entries again (set 1):
Structure (SMILES) | IC50
CC[C@H](C)[C@H](NC(=O)[C@H](CCC(=O)O)NC(=O)[C@H](CCC(N)=O)NC(=O)[C@H](Cc1cnc[nH]1)NC(=O)[C@@H](NC(=O)[C@H](CS)NC(=O)[C@H](Cc1ccc(O)cc1)NC(=O)[C@H](CC(C)C)NC(=O)[C@@H](N)[C@@H](C)O)C(C)C)C(=O)O | > 20 µM
CC[C@H](C)[C@H](NC(=O)CNC(=O)[C@H](CCSC)NC(=O)[C@H](CCC(=O)O)NC(=O)[C@@H](N)CCCNC(=N)N)C(=O)N[C@H](C(=O)N[C@@H](CC(=O)O)C(=O)N[C@@H](CC(C)C)C(=O)N[C@@H](CC(C)C)C(=O)O)C(C)C | > 20 µM
